Measurements of several laboratories.
Every numbered part comes from another study and shows a few of its results, in no order. Changes are numbered by the printed parent chain.
Sequence of UniProt Q8L7G0 (whole entry, looked up): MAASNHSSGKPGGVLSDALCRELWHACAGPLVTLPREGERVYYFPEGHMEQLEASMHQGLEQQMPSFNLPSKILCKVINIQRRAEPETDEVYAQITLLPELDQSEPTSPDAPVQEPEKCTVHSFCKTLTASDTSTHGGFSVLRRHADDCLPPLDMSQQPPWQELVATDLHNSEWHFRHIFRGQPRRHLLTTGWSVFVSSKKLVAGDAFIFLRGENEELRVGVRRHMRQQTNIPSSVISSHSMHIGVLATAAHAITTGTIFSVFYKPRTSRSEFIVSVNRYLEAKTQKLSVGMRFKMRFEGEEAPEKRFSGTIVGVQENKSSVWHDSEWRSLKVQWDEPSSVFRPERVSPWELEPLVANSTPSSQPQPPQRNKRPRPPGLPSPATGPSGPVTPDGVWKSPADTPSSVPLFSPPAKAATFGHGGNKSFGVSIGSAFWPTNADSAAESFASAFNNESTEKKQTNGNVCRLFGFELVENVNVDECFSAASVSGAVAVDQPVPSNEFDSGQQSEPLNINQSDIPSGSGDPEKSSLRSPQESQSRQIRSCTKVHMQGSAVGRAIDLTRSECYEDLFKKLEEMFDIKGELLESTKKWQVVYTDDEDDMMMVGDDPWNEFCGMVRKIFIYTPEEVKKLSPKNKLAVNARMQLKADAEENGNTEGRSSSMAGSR
Sequence of UniProt O24408 (whole entry, looked up): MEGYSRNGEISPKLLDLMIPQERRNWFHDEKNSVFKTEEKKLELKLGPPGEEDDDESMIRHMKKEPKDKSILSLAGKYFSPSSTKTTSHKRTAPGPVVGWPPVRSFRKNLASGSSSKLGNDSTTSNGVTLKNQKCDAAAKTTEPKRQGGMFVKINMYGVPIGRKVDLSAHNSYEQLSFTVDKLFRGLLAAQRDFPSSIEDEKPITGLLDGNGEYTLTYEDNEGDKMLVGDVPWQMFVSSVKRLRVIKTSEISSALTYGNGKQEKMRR
Sequence of UniProt Q94JM3 (whole entry, looked up): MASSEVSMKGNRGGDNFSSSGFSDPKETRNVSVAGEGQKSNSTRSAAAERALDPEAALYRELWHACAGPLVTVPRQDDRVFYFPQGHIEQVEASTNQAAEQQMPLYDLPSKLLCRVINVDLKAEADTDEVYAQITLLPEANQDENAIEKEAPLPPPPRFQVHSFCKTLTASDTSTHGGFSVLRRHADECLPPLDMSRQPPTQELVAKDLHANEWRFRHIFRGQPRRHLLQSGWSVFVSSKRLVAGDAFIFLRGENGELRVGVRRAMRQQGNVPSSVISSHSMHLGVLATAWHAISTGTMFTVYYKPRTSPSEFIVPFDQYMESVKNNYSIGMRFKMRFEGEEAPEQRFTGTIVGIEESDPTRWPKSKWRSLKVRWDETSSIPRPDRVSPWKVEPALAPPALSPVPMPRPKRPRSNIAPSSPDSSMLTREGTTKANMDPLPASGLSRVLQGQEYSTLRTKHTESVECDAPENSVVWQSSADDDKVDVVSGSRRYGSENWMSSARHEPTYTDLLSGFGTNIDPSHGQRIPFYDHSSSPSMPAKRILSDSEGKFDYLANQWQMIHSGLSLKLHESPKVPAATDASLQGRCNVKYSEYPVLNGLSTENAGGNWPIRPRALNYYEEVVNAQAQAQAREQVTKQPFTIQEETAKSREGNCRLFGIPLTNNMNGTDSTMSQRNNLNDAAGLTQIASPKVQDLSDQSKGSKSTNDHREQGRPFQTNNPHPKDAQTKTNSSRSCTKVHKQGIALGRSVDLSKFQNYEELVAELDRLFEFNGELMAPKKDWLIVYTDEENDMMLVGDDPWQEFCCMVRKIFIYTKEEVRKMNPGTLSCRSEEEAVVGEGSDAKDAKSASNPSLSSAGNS
Sequence of UniProt O24409 (whole entry, looked up): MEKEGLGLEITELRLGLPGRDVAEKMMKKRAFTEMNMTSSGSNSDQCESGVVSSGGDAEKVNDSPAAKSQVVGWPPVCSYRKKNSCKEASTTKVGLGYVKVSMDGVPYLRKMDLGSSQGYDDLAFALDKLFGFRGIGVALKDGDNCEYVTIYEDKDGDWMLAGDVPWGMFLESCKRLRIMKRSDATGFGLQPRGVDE
Sequence of UniProt Q9ZSY8 (whole entry, looked up): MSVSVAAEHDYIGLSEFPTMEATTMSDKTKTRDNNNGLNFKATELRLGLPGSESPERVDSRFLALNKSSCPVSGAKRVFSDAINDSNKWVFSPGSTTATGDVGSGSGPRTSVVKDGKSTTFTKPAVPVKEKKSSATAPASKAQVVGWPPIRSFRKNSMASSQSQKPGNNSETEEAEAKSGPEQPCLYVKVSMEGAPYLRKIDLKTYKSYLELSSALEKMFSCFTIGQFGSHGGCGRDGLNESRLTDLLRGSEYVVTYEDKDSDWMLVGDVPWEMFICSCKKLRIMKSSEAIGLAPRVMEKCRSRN
Sequence of UniProt Q9SKN5 (whole entry, looked up): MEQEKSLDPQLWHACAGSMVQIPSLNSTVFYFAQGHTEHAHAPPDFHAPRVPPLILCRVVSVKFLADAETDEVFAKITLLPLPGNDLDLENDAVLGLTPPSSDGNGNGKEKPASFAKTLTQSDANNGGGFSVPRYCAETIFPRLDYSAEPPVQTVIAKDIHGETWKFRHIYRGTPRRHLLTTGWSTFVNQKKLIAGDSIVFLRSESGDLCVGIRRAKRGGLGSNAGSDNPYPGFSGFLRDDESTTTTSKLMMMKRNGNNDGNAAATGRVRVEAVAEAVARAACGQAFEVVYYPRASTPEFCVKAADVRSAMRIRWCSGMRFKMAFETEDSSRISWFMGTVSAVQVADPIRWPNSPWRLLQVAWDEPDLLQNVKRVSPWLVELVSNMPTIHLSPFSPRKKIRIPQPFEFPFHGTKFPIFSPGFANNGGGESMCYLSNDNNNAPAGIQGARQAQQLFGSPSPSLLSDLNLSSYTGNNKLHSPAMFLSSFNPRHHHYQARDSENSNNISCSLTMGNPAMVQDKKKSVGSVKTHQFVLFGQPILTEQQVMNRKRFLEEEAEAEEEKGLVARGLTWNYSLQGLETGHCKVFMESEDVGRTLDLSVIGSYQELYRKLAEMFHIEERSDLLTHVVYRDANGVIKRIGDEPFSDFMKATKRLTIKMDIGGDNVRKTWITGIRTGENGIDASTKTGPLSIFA
Sequence of UniProt Q9ZTX9 (whole entry, looked up): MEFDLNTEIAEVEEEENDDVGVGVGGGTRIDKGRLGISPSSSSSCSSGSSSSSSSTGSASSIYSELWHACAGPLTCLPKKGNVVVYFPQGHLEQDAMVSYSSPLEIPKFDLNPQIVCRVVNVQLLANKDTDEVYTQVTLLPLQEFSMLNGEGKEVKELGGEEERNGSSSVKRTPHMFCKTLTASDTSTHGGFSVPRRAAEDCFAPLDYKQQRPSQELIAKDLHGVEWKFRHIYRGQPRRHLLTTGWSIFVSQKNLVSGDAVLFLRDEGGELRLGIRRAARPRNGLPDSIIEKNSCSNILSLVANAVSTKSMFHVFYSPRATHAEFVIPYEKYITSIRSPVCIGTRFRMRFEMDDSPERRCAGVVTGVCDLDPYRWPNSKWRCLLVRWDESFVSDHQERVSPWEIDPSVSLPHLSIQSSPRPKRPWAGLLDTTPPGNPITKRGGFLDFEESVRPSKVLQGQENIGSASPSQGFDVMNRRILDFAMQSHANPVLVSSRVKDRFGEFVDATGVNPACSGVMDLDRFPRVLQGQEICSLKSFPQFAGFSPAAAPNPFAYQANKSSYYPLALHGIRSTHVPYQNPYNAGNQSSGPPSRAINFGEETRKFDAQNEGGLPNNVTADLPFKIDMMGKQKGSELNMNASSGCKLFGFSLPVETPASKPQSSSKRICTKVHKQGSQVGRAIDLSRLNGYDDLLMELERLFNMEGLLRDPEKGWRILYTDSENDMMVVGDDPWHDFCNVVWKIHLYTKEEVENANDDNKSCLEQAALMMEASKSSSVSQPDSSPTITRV

Sample 1
Molecule: B1 (IAA13)
Technique: two-hybrid
Baseline: out of 4 tests
Direction: higher = firmer interaction
Quantity: positive tests
B1: IAA13 (Arabidopsis thaliana, UniProt Q38831); chain MITELEMGKGESELELGLGLSLGGGTAAKIGKSGGGGAWGERGRLLTAKDFPSVGSKRAADSASHAGSSPPRSSSQVVGWPPIGSHRMNSLVNNQATKSAREEEEAGKKKVKDDEPKDVTKKVNGKVQVGFIKVNMDGVAIGRKVDLNAHSSYENLAQTLEDMFFRTNPGTVGLTSQFTKPLRLLDGSSEFVLTYEDKEGDWMLVGDVPWRMFINSVKRLRVMKTSEANGLAARNQEPNERQRKQPV
IAA18 (Arabidopsis thaliana, UniProt O24408): 1
ARF2 727-859 (Arabidopsis thaliana, UniProt Q94JM3): 0
IAA27 (Arabidopsis thaliana, UniProt Q9ZSY8): 2
ARF1 538-665 (Arabidopsis thaliana, UniProt Q8L7G0): 0
IAA19 (Arabidopsis thaliana, UniProt O24409): 2
ARF4 660-788 (Arabidopsis thaliana, UniProt Q9ZTX9): 0
ARF10 575-693 (Arabidopsis thaliana, UniProt Q9SKN5): 0

Sample 2
Target: Hepatocyte nuclear factor 3-beta, forkhead domain (FOXA2, Homo sapiens, UniProt Q9Y261, residues 142-269)
Technique: protein-binding microarray
Molecule type: double-stranded DNA, one strand shown
Sample: in vitro
Concentration: not given
Notes: k-mer, scored over probes, only values ≥0.25
Direction: higher = stronger binding
Quantity: E-score
Construct (chain): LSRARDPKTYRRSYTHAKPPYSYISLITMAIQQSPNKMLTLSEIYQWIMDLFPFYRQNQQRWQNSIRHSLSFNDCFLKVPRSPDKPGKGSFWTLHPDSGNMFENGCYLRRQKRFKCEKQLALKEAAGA
ATTAGTTA: 0.309
ACTACAGA: 0.273
CATACAAC: 0.313
AATACCAT: 0.269
ATCCGTAC: 0.274
ATATTCAC: 0.259
AGAATATG: 0.294
AAGTGTAT: 0.314

Other studies, line by line
P1: viral docking peptide; KKAKRRLFTISDS; partner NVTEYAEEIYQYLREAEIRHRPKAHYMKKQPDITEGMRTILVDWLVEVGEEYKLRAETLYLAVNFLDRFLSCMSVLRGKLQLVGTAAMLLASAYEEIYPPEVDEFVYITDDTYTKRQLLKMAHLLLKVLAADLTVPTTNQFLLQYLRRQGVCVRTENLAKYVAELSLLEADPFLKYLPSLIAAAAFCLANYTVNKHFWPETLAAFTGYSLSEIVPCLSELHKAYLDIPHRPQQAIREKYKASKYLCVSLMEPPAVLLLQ
H2BC15 (Homo sapiens, UniProt Q99877) — interaction screen (H2AC14 (Homo sapiens, UniProt Q99878); cross-linking MS; hits only): cross-linked
P1 K1A — normalised enrichment score (CCNA1, cyclin fold, Cln2 fusion (human); yeast growth competition, sequencing; yeast; weak parent motif; baseline: not given, higher = stronger binding): 0.154

For quick reference, copied from above (sample 1):
IAA27 (Arabidopsis thaliana, UniProt Q9ZSY8): 2
ARF1 538-665 (Arabidopsis thaliana, UniProt Q8L7G0): 0
